Measurements from different studies.
Each numbered part is a random draw from the data of one study; scales do not carry over between parts.

Set 1
Target: Centromere-binding protein 1, full length, His-tagged (CBF1, Saccharomyces cerevisiae, UniProt P17106, residues 1-351)
Sequence of UniProt P17106 (whole entry, looked up): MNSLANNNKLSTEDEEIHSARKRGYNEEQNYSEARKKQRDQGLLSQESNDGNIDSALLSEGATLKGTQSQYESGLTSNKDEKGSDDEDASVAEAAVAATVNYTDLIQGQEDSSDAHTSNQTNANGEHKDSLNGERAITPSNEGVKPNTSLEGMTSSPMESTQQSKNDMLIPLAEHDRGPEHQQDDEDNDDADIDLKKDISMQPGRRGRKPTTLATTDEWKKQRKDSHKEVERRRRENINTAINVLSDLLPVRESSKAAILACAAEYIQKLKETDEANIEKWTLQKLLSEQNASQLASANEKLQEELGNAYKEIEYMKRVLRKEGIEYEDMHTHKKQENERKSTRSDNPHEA
Method: competition protein-binding microarray
Molecule type: double-stranded DNA, one strand shown
Matrix: in vitro
Concentration: 2 µM
Notes: whole 60-bp probe, lowest competitor level
Added: Pho4 competitor, 0.05 µM
Direction: higher = stronger binding
Shared flanks, not repeated: … GTCTTGATTCGCTTGACGCTGCTG
Strand | fluorescence intensity [a.u.]
GTCTTGTCTCATTGGGTTGTGGGTGTCCCCACTTCA | 76.8
CGAAAACGGATGCCATGTTCCAGCACCAACTGCTAC | 57.7
AAAGCGGTAATTTGAGTAGTGGGTGCAGATATCTAT | 76.4
GTATGGCGCGGAAGAAACCGAGAGAGCTGCAAAATT | 56.9
AAATTACTAAGTTGTACGGTGGGTGACGCCGTATGA | 67.6
CGGGGTTAAGTTTGTTCCGTGGGTGGCTTGCAGCAG | 59.4
TAACGGCTATCCCATCACGCTTTCACCGAGGAGACC | 131
CGCTTATTTGTAGAGTTTGTAGTTTTTAAGCGTTCT | 87.6
CACAAGACGATTTTGCACGTGGTGAGTTTTGTAAGC | 1900
CGGGGTTAAGTTTGTCACGTCACTTGCTTGCAGCAG | 104
TATGGCGAGCCACATCATGTGATTGCCGTTGAGGTT | 967
CGTCCTAGCGATTGAGCTGTGGGTGCCATGAGGAAG | 63.1
ACTACTAGCCCTCCACACGTTCGAGGCCAGGTTGAT | 66
TTGAGAAGTGGGACCCACGTGCCACTCCCTGTTCTG | 1160
CTTCTGTAAATTTGACCCGTGGGTGGACGCGCCCCG | 76.3
CTCAGGTAGACGGTGCTCGTGTCGGGACAATTTTAA | 74.2
TTGTTTCTAGACCACCACGTGTGGATTGCAAAACAA | 765
CGTCCTAGTGATTGTCACGAGACTTCCATGAGGAAG | 1080
CTAACGAAGGTTTCCCACGTGTTTTACAAGCCAAGT | 832

Set 2
Target: Histone acetyltransferase KAT6A, winged helix 1, GST fusion (KAT6A, Homo sapiens, UniProt Q92794, residues 1-85)
Method: protein binding microarray
Molecule type: double-stranded DNA, one strand shown
Matrix: in vitro
Concentration: not given
Notes: 8-mer, flanks averaged, mean of 2 arrays, mostly near background
Relative to: not given
Direction: higher = stronger binding
Construct (chain): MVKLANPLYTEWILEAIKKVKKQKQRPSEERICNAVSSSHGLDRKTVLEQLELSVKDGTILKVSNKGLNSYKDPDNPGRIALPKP
Strand | E-score
AAGGGCCC | 0.0396
TCAAACAA | -0.077
CTTAAGAA | -0.169
GACCGTAC | 0.215
CGGCATTC | 0.366
CTGTGTGA | -0.135
ACTATGGC | -0.0494
CTGTGCCC | -0.121
AGCAAACT | -0.186
AAACTATG | -0.176
AGCGAAGA | -0.0605
AAACTTAT | -0.127
CACTAAGA | -0.185
AGTGTTGC | -0.0652
ACTATTAA | -0.131
AATAAACT | 0.0159
AACCCAAA | -0.14
CAGTCCTA | -0.147
AAAATGGT | -0.273
AACCACAC | -0.164
GACACATA | -0.272
CCTAGGAC | -0.314
CGTAATGA | 0.132

Set 3
Molecule: PhoQ, residues 284 288 289 292 302 303 SMMNNA
Method: Sort-seq
Item: YFP reporter
Matrix: E. coli
Notes: PhoQ-PhoP variant library
Added: 10 µM Mg2+
Relative to: high Mg2+ state
Direction: higher = stronger signaling
target | fold induction
PhoP, residues 12 14 15 18 19 NFFVT (Escherichia coli, UniProt P23836) | 22
PhoP, residues 12 14 15 18 19 TPWTL (Escherichia coli, UniProt P23836) | 0.422
PhoP, residues 12 14 15 18 19 LHHYF (Escherichia coli, UniProt P23836) | 4.83
PhoP, residues 12 14 15 18 19 VGHWL (Escherichia coli, UniProt P23836) | 3.61

Set 4
Target: RNA binding protein fox-1 homolog 2, RRM domain, GST-SBP tag (RBFOX2, Homo sapiens, UniProt O43251-10, residues 100-194)
Method: RNA Bind-n-Seq
Molecule type: RNA
Matrix: in vitro
Concentration: 365 nM
Notes: natural RNA segment, single round, ends assumed
Relative to: no-protein control
Direction: higher = stronger binding
Shared flanks, not repeated: GGGAGUUCUACAGUCCGACGAUC … UGGAAUUCUCGGGUGCCAA
Target sequence (chain): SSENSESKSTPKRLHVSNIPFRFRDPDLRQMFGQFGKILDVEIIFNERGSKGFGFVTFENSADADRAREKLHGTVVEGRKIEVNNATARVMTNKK
Strand | RBNS enrichment (R)
UUUCCUGUGAAGUUGGAGGGACGUUUGUAGUCAUGUGACACUAGCCGUCCUGCCCCUGCUGUCAGAGAUUUUUUUCUCCAGAGAGGUGCCUGUCCUGUGCUUGGAUAGUC | 0.425
CAAAAAAACCCACCAUUCUCAAAAAGAAAAACAAAAAGAAUGUAGCUUUUUAAGAACUACUUUAAUUGAAAGAUAAGAACUUUGCUAUCUUAUGCAGUGUAGUGUUCCCU | 0.513
UGCCUAGCCCAUCAUCUAUCUAACCGGUCCUUGAUUUAAUAAACACUAUAAAAAGUUCUUUGCUUUACUCAGCCAGUGUCCACUGGCAAUCCCUGGGCUGGGCUCUGGGG | 0.527
UCAUGUGUUGUGAGUCAGAUCACACAGUCGAUAGGAUCAGUAUUUCAAUUCCAGAGCCCCUCCACUCUAACGCUAUGCUUUGCUUAUUAUUGCUACAGAGAUAACUGCCC | 0.532
GAAAGUGAAAAGUUAAGACCGUUCACAAGAAUUACACCCACACGCUGCCUGUCACAGCCUGUGAGGGAACGCAGAACACCUGGCUGGGUCCCACGGGUGACCCUCUCAUU | 0.214
UGAACGAACGAACGAACGAAUGAAAACACACACAAAAUGUUUCAAGUUCCCCUAAAAUAUGACCCACUUGUUCCGGGUCUAAGGCAGAAAAGAGACGCAGAAUAGCCAAA | 0.784
UGAAUCUCAUUUGCCAUCUUUAGUUUUCUUAUGGAGGUUUAUACUCUUUAAACAGUUCUGAUGUAAUUUCUCAACAAAAUGUGGCUUUUAGCCUGUCAGUGAUCUAUUGG | 0.377
GGAUGCUGGGUGGGUGUGUGGUCCAUGUUCAGCGUUCUAGCAACACGUGUGUGUGUGUGUGUGUAAAGGCUAUGCAGCCAAAAUACCAUCUGGCCAGACGGGCCCACCCA | 0.414
